Assay results gathered from unrelated publications.
Compare with care: the assays were run in different laboratories. Values joined by “and” are separate records of one study, mostly repeats; a detail may differ.
Target: Serine/threonine-protein kinase N2 (PKN2, Homo sapiens, UniProt Q16513)

Under “activity vs control”, `O=C(Cc1ccc(OCc2ccccc2)cc1)NC1(C(=O)O)CCN(C(=O)c2ccc(-c3cccc(Cl)c3)cc2)CC1` is recorded as 112% (enzyme activity, inhibitor; 10 µM).
`COCC12C(=O)NC3C4(C(OC)CC1O)C1CC5(O)C(OC)C(O)C(OC(C)=O)(C1C5OC(=O)c1ccccc1)C3(O)C(OC)C24` (stereo not shown) has a remaining activity of 97% and 94% (kinase activity, inhibitor, ProQinase kinase profiling; 25 µM; reference: control).
For `COc1cc(Nc2nc(C)cc(-c3cnn4nc(OC)ccc34)n2)cc(C(F)(F)F)c1`, the remaining activity was 90% (inhibitor; 1 µM; reference: control).
`N[C@H]1CC[C@H](Nc2nccc(-c3cccnc3Oc3ccc(NC(=O)NC4CC4)c4ccccc34)n2)CC1` — result for “log2 LFQ intensity”: 18.6 and 20.4 and 19.9 and 18.9 (kinobead competition pulldown; HEK293/HCT116 lysate mixture; 10 µM, 1 h, 4 °C; lower = stronger competition).
`CCn1cc(C(=O)O)c(=O)c2c(N)c(F)c(NC3CCCCC3)cc21` has an inhibition of 6.1% (kinase activity; 0.1 µM, added: ATP at Km).
The remaining activity of `O=c1c(-c2ccc(Cl)c(CN3CCOCC3)c2)coc2cc(O)ccc12` is reported as 119% (enzyme activity, inhibitor; 1 µM).
`Cc1cnc2nc1Nc1cccc(c1)COC/C=C/COCc1cc(ccc1OCCN1CCOCC1)N2` gave a remaining binding of 92% (binding; 0.1 µM).
`Nc1ncc2c(n1)-c1c([nH]c3ccc(C4=CCOCC4)cc13)CCC2` gave a remaining binding of 100% (binding, competition with immobilised ligand; 1 µM).
`CNC(=O)C[C@H](Cc1ccc(C#N)cc1)NC(=O)c1cc(-c2ccc(CN[C@H](C)c3ccc(C)cc3)o2)ccc1Cl` — result for “activity vs control”: 79% (enzyme activity, inhibitor; 1 µM).
The inhibition of `C=CC(=O)Nc1cccc(-c2cnc3[nH]cc(C(=O)NC(C)(C)C)c3n2)c1` is reported as 17% (enzyme activity, inhibitor; 0.1 µM).
`Cc1ccc(C)c(-c2ccc3nc(NC(=O)C4CCCCC4)nn3c2)c1` has a remaining activity of 79% (enzyme activity, Dundee kinase panel; 10 µM).
With `O=C=[N][Ru-4]123([n]4c5ccc(O)cc5c5c6c(c7cc(F)c[n+]1c7c54)C(=O)NC6=O)[S+]1CC[S+]2CC[S+]3CC1` (stereo not shown) the remaining activity was 76% (enzyme activity; 100 nM, human enzyme, added: 10 µM ATP; reference: untreated).
For `NC(=O)C[C@H]1CCc2sc3ncnc(O[C@H]4CC[C@H](N5CCOCC5)CC4)c3c21`, the inhibition was -7% (enzyme activity, inhibitor; 10 µM).
`Cc1cccc(-c2ccc3nc(NC(=O)C4CCCO4)nn3c2)c1` (stereo not shown) gave a remaining activity of 84% (enzyme activity, Dundee kinase panel; 10 µM).
For `Cc1cccc(O[C@H]2CCC[C@@H](C(C)CNCc3ccncc3)C2)c1` (relative stereo), the inhibition was 1% (enzyme activity, inhibitor; 1 µM).
For `C=CC(=O)N1CCc2ccc(-n3c(=O)ccc4cnc5ccc(-c6cnn(C)c6)cc5c43)cc21`, the remaining binding was 94% (KINOMEscan; 1 µM; reference: DMSO control).
For `COc1c(OCCCN2CCOCC2)ccc2c1N=C(NC(=O)c1cnc(N)nc1)N1CCN=C21`, the remaining activity was 105% (kinase activity, inhibitor; 1 µM; reference: untreated control).
`C=CC(=O)N1Cc2nc(-c3cc(-c4cc(Cl)cnc4Cl)c(F)cc3F)n(-c3ccncn3)c2C1` gave an inhibition of 5% (cell-free assay, inhibitor; 1 µM).
With `CN1CCN(Cc2ccc(-c3ccc(CO[C@H]4CCC[C@@H]4NC(=O)c4cc(-c5cnn(C)c5)cnc4N)cc3)cc2)CC1` the inhibition was 20% (enzyme activity, inhibitor; 0.1 µM).

Some of these lines once more:
`N[C@H]1CC[C@H](Nc2nccc(-c3cccnc3Oc3ccc(NC(=O)NC4CC4)c4ccccc34)n2)CC1` — result for “log2 LFQ intensity”: 18.6 and 20.4 and 19.9 and 18.9 (kinobead competition pulldown; HEK293/HCT116 lysate mixture; 10 µM, 1 h, 4 °C; lower = stronger competition).
For `COc1c(OCCCN2CCOCC2)ccc2c1N=C(NC(=O)c1cnc(N)nc1)N1CCN=C21`, the remaining activity was 105% (kinase activity, inhibitor; 1 µM; reference: untreated control).
`CCn1cc(C(=O)O)c(=O)c2c(N)c(F)c(NC3CCCCC3)cc21` has an inhibition of 6.1% (kinase activity; 0.1 µM, added: ATP at Km).
